Assay results pooled from the literature.
Compare with care: the assays were run in different laboratories.
Cell line: MDA-MB-231

SMILES	read-out	action	method	time	notes	IC50 [µM]
COC(=O)[C@H](C(C)C)N(C)C(=O)[C@H](C(C)C)N(C)C(=O)[C@@H]1CCCN1C(=O)[C@H](C)N(C)C(=O)OC(C)(C)C	cell growth or viability		SRB			56
Cc1cc(C)c(S(=O)(=O)N2CC2C(N)=O)c(C)c1 (stereo not drawn)	cell growth or viability		MTT	48 h		448
[N-]=[N+]=NCCCN1C(=O)c2cccc3cccc(c23)C1=O	cell growth or viability		MTT	24 h		> 100
CC1OC(OC2CC3OC(C)(C)OCC34C3C(O)CC5(C)C(C6=CC(=O)OC6)CCC5(O)C3CCC4(O)C2)C(O)C(O)C1O (stereo not drawn)	cell migration	inhibitor				30.9
COc1ccc(C(c2c(C)nn(-c3ccccc3)c2O)c2c(C)nn(-c3ccccc3)c2O)cc1OC	cell growth or viability		MTT	48 h		11.1
NC1CCCCC1N.O=C1[O][Pt]([O]C(=O)c2ccc(P(c3ccccc3)c3ccccc3)cc2)([O]C(=O)c2ccc(P(c3ccccc3)c3ccccc3)cc2)[O]C1=O.[Cl][Au].[Cl][Au]	cell growth or viability		resazurin	72 h		5.87
CCCCCCCC(=O)NCC(=O)N[C@@H](C)C(=O)N[C@@H](CC(C)C)C(=O)N[C@](C)(CC)C(=O)N[C@@H](C)C(=O)N[C@H](C(=O)N[C@H](C=O)CC(C)C)[C@@H](C)CC	cell growth or viability		MTT			3
CC[C@H](C)[C@H](NC(=O)[C@H](CCCNC(=N)N)NC(=O)[C@H](CCCNC(=N)N)NC(=O)[C@H](CCCNC(=N)N)NC(=O)[C@@H](NC(=O)[C@@H](NC(=O)[C@H](C)NC(=O)[C@H](CCCNC(=N)N)NC(=O)[C@H](CCCNC(=N)N)NC(=O)[C@H](CCCNC(=N)N)NC(=O)[C@@H]1CCCN1C(=O)[C@@H](N)CCCNC(=N)N)[C@@H](C)O)[C@@H](C)O)C(=O)N[C@H](C(=O)N[C@H](C(=O)NCC(=O)N[C@H](C(=O)N[C@@H](CCCNC(=N)N)C(=O)N[C@@H](CCCNC(=N)N)C(=O)N[C@@H](CCCNC(=N)N)C(=O)N[C@@H](CCCNC(=N)N)C(N)=O)[C@@H](C)O)[C@@H](C)O)[C@@H](C)O	cell viability		CellTiter-Blue	24 h	serum-free medium	> 100
COC(=O)C1CN1S(=O)(=O)c1ccccc1 (stereo not drawn)	cell growth or viability		MTT	48 h		23
C=C(CO)[C@H]1Cc2c(ccc3c2O[C@@H]2COc4cc(OC)c(OC)cc4[C@]2(O)C3=O)O1	cell growth or viability		MTT	72 h		27.2
Cc1nn(-c2ccccc2)c(O)c1C(c1ccccc1[N+](=O)[O-])c1c(C)nn(-c2ccccc2)c1O	cell growth or viability		MTT	48 h		39.4
CC(C)C[C@@H](NC(=O)[C@H](N)Cc1ccccc1)C(=O)NCC(=O)N[C@@H](C(=O)N[C@H](CC(C)C)C(=O)N[C@H](C)C(=O)N[C@H](CC(C)C)C(=O)N[C@H](CC(C)C)C(=O)NCC(=O)N[C@H](Cc1ccc(O)cc1)C(=O)N[C@H](CC(C)C)C(=O)N[C@H](C)C(=O)N[C@@H](C(=O)N[C@H](CCCNC(=N)N)C(=O)N1CCC[C@@H]1C(=O)N[C@H](Cc1ccccc1)C(=O)N[C@H](CC(C)C)C(=O)N1CCC[C@@H]1C(=O)N[C@H](CCCCN)C(=O)N[C@H](CCCCN)C(=O)N[C@H](CCCCN)C(=O)N[C@H](CCC(N)=O)C(=O)N[C@H](CCC(N)=O)C(=O)N[C@H](CCCCN)C(N)=O)C(C)C)C(C)C	cell growth or viability		resazurin			12.8
C[C@@H](N)[C@H](O)CCCCCCCC(=O)CCCCCCCCCCCCCC[C@@H](O[C@@H]1O[C@H](CO)[C@H](O)[C@H](O)[C@H]1O)[C@H](N)CO	cell growth or viability		resazurin	96 h		2.15
O=C(O)c1ccc([PH]([Au][Cl])(c2ccccc2)c2ccccc2)cc1	cell growth or viability		resazurin	72 h		16.5
CN(C)C1=[S+][Au-]2([S]1)[c]1ccccc1-c1cccc[c]12	cell growth or viability		MTT	72 h		4.07
COC(=O)C1CN1S(=O)(=O)c1ccc(C)cc1 (stereo not drawn)	cell growth or viability		MTT	48 h		61
Cc1nn(-c2ccccc2)c(O)c1C(c1ccc(N(C)C)cc1)c1c(C)nn(-c2ccccc2)c1O	cell growth or viability		MTT	48 h		26.4
C1=CCCC=CCC1.C1=CCCC=CCC1.O=C(N=P12CN3CN(CN(C3)C1)C2)c1cccc[c]1[Pt+].O=C(N=P12CN3CN(CN(C3)C1)C2)c1cccc[c]1[Pt+].[Cl][Hg-]([Cl])[Cl].[Cl][Hg-]([Cl])[Cl].[Cl][Hg][Cl].[Cl][Hg][Cl]	cell growth or viability		MTT	24 h		14.6
COc1cc(C(c2c(C)nn(-c3ccccc3)c2O)c2c(C)nn(-c3ccccc3)c2O)cc(OC)c1OC	cell growth or viability		MTT	48 h		9.47
C#CCCCC[C@H](C)C[C@@H](C)C(=O)N(C)[C@H](C(=O)N(C)[C@@H](Cc1ccccc1)C(=O)N1CCC[C@H]1C(=O)N1CCC[C@H]1C(C)=O)C(C)C	cell growth or viability		SRB			1
Cc1cc(C)c(-n2c[n+](-c3c(C)cc(C)cc3C)c3c2-c2cccc4cccc-3c24)c(C)c1.[Cl][Pd-]([Cl])[CH2]C=Cc1ccccc1	cell growth or viability		MTT	72 h		6

For quick reference, copied from above:
SMILES	read-out	action	method	time	notes	IC50 [µM]
C[C@@H](N)[C@H](O)CCCCCCCC(=O)CCCCCCCCCCCCCC[C@@H](O[C@@H]1O[C@H](CO)[C@H](O)[C@H](O)[C@H]1O)[C@H](N)CO	cell growth or viability		resazurin	96 h		2.15
O=C(O)c1ccc([PH]([Au][Cl])(c2ccccc2)c2ccccc2)cc1	cell growth or viability		resazurin	72 h		16.5
CN(C)C1=[S+][Au-]2([S]1)[c]1ccccc1-c1cccc[c]12	cell growth or viability		MTT	72 h		4.07
COC(=O)C1CN1S(=O)(=O)c1ccc(C)cc1 (stereo not drawn)	cell growth or viability		MTT	48 h		61
